Published values gathered from unrelated publications.
Parts stem from different laboratories: compare values within a part only. Positions count from the first letter of the parent shown.

Block 1
Target: RING finger protein unkempt homolog, zinc fingers 1-6, GST-SBP tag (UNK, Homo sapiens, UniProt Q9C0B0, residues 30-357)
Method: RNA Bind-n-Seq
Form: RNA
Medium: in vitro
Tested at: not given
Notes: RNA with constant flanks, human-mouse chimeric sites, ends assumed
Reference: input RNA pool
Reading: higher = stronger binding
Measurement: bound/input enrichment
Constant ends, left off below: GGGAGUUCUACAGUCCGACGAUC … CAACAGAGGAUUGAGCAUCA
Target sequence (chain): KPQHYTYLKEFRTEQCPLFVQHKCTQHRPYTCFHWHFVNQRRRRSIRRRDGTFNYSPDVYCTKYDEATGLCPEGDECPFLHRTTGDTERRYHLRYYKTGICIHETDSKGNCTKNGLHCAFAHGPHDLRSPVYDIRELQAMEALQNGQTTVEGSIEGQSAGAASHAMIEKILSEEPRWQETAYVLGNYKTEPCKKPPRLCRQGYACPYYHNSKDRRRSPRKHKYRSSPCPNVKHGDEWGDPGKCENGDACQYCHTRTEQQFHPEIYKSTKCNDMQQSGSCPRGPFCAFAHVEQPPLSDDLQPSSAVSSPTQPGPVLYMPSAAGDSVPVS
GAUAAGAAAAACUUGUUGGAGACCCGCUUGCAUGUCACUGGUAGAGAACUGAGGUCCCAAAUAGCUGAAACUUUCGGAUUUCAAGAAAAUUACAUCAAGAUCGUAAUAAAUAAGAAACAG: 0.659 ratio
AUGCAGUAUGAGACCAACAGCAUGGACUUCAAAGUCGGGGCAGAUGGGACAGUCUUCGCCACCCGGGAGCUGCAGGUCCCCUCCGAGCAGGUGGCGUUCACGGUGACUGCAUGGGACAGC: 0.134 ratio
UGGGCACUCUAUCAGAUAUAUUAAUUUUUUAAUGUAGAUGUAAUUUUAAAAAUGAAUGGCUACUUUACACGUUUAACUAGGGUUUUACUAUAUAUGUGUACAUAUGUAUAUAUAUAUAUA: 12.2 ratio
GUUGCCAGCUUCCGGUUCCGUUGGGCUCGGUUCUCUCCUGAGCUACGUGUCUCUACGCUCUCAAUCCCGGUUGGGUAAAACAUGGAUCAGGUAAUGCAGUUUGUGGAGCCCAGCCGGCAG: 0.0741 ratio
AAAGAGUGGAUAGAGUGUGCACACGGGAUCGGUGGGACCCGGGCGAAAAAGGAGUGCAAGAUAGAGUAUGAUGAUUUCGUAGAGUGUUUGCUUCGGUACAAAACGAUGAGGCGAAUGCAU: 0.929 ratio
AGAGAUAAGACAUCCAGAAAUAUGAGAGGCUCCCGGAUGAAUGGGUUGCCUAGCCCCACUCACAGCGCCCACUGUAGCUUCUACAGAACCAGAACCUUGCAGGCACUGAGUAAUGAGAAG: 0.254 ratio
ACUCAGAGAUUAUAUUCCCAAAGUGCUGGGAGUAAAGGUGUGGCCACCACACCUAACUUGAUGGAUAUAUAUUUUUUUUAAUAUGAAUCUUCCUGUUCGUCCAGGGAGCAAGAACGGGUU: 0.637 ratio
GAUCAUGAACCACCAUCAGAAAUGAAGGAUGAGACUACCAGACGAGCCAAAACAGCUGCGCUACAGAAAAGUAAACUUUAACCUUGCGAGUUCCUUAAUGAAGAUACAAGUUAAGAGAGC: 0.161 ratio
UUAAUCCCCUUUACUGCUCCCCCACUUCUCAUGGUAAUGACAAAAACUUAUAUCCCCAUAUUAGCUUUCACUCAGAUGGCUUAUGGAGCCGGUUUCCUAGCUUUCUUGGGAGGGAUCAGA: 0.323 ratio
GUAAUGGACGUCAACACUGCUCUACAAGAGGUGCUGAAGACUGCCCUCAUCCACGAUGGCCUAGCACGUGGCAUACGCGAAGCUGCCAAAGCCUUAGACAAGCGCCAAGCCCAUCUGUGU: 0.234 ratio
GAGUCGAGCAAACUUGAAACAAUUCGUUAUCUUGCAGCCUCAGUGUUUUUACUUGCCUGGCAAUAGCUGGGGUUUUAUAGGUUCUGGAAGGAGAACUGACGAUGAUGCUGCCGCUGCUGC: 0.307 ratio

Block 2
Target: ABI1, truncated, D143A, DHFR fusion (Arabidopsis thaliana)
Method: DHFR PCA, deep sequencing
Medium: yeast
Notes: methotrexate growth selection, single substitutions
With: (+)-ABA 0.0091 µM
Reference: wild-type fitted maximum
Reading: higher = stronger binding
Measurement: relative binding score
Parent: PYL1, truncated, DHFR fusion (Arabidopsis thaliana); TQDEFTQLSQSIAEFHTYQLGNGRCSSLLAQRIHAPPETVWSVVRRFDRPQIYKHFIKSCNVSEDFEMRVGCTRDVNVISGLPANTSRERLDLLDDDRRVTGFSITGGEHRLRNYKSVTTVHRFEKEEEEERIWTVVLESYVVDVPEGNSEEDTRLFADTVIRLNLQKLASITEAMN; partner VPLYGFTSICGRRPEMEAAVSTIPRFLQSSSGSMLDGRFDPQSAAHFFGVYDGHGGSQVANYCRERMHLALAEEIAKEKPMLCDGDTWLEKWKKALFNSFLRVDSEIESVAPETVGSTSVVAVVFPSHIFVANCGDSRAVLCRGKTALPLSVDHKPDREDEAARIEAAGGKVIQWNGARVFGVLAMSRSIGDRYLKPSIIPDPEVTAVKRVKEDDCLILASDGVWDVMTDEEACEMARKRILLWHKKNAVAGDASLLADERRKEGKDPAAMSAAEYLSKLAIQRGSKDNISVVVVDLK
E64C: 15.2%
T6P: 51.6%
F124A: 6.23%
I172W: -9.27%
Y115L: -0.353%
H122L: -1.89%
E67S: 16.2%
E174I: -2.36%
L28A: -0.0719%
V43F: 2.42%
E147L: 9.26%
S26C: 12.5%
L20D: 28%
N77D: 29.9%
W134A: 5.68%
Q167Y: -1.61%
T173S: 20.6%
G108A: -3.41%
E152H: 4.68%
Q51M: -7.15%
A35E: 3.11%
K126R: 34.1%
S140P: 5.73%
V136A: -4.08%
E152Y: 4.93%

Block 3
Target: CCNA2, cyclin fold, Cln2 fusion (human)
Method: yeast growth competition, sequencing
Medium: yeast
Notes: strong parent motif
Reference: not given
Reading: higher = stronger binding
Measurement: normalised enrichment score
Parent: RBL2 docking peptide (human); STTRRRLFVENDS; partner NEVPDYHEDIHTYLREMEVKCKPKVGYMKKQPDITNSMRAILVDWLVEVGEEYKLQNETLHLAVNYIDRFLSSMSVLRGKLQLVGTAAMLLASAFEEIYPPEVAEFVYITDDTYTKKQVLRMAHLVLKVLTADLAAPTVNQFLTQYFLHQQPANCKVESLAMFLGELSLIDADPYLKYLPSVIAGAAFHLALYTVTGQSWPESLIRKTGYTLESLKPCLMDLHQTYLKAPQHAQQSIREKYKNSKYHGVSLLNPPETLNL
STTRRRLFHENDS [V9H]: 5.97
SYTRRRLFVENDS [T2Y]: 5.24
PTTRRRLFVENDS [S1P]: 5.08
STTRRRLFVENWS [D12W]: 4.84
SGTRRRLFVENDS [T2G]: 6.2
STTRRRLFTENDS [V9T]: 6.63
STTWRRLFVENDS [R4W]: 1.1
STTRRRRFVENDS [L7R]: 1.09
STTRRRLFWENDS [V9W]: 6.52
STTRRQLFVENDS [R6Q]: 5.67
STTRRRLIVENDS [F8I]: 1.93
STTGRRLFVENDS [R4G]: 0.879
STTRRRSFVENDS [L7S]: 0.0832
STTRRRLEVENDS [F8E]: 0.918
STTIRRLFVENDS [R4I]: 2.18
STTRRRLTVENDS [F8T]: 0.307
STTRRRLFVEGDS [N11G]: 5.85
STMRRRLFVENDS [T3M]: 3.5
STLRRRLFVENDS [T3L]: 3.89
STTRRYLFVENDS [R6Y]: 0.736
STTRRRLFVETDS [N11T]: 5.82

Block 4
Target: CREB3L2, bZIP domain (human)
Method: DHFR protein complementation
Medium: yeast
Notes: single substitutions, most at no-binding floor
Reference: wild-type JUN-FOS pair
Reading: higher = stronger binding
Measurement: binding fitness
Parent: JUN, bZIP domain (human); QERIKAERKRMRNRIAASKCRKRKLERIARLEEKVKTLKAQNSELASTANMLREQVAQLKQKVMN; partner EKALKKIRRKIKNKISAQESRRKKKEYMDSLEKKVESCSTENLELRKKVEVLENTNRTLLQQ
E44K: -1.48 natural log
L31A: -1.43 natural log
K39L: -1.39 natural log
A57T: -1.37 natural log
N42D: -1.55 natural log
E32Y: -1.41 natural log
E32D: -1.53 natural log
R53L: -1.45 natural log
A46C: -1.54 natural log
S47T: -1.5 natural log
A46H: -1.55 natural log
V35R: -1.55 natural log
K36G: -1.46 natural log
A40M: -1.61 natural log
L45D: -1.56 natural log
R53G: -1.53 natural log
K39H: -1.46 natural log
E44W: -1.5 natural log
N42C: -1.49 natural log
K34W: -1.55 natural log
K39T: -1.37 natural log
R53I: -1.54 natural log
E33S: -1.54 natural log
K39Q: -1.36 natural log
N42R: -1.48 natural log

Block 5
Target: RNA binding protein fox-1 homolog 2, RRM domain, GST-SBP tag (RBFOX2, Homo sapiens, UniProt O43251-10, residues 100-194)
Method: RNA Bind-n-Seq
Form: RNA
Medium: in vitro
Tested at: 365 nM
Notes: natural RNA segment, single round, ends assumed
Reference: no-protein control
Reading: higher = stronger binding
Measurement: RBNS enrichment (R)
Constant ends, left off below: GGGAGUUCUACAGUCCGACGAUC … UGGAAUUCUCGGGUGCCAA
Target sequence (chain): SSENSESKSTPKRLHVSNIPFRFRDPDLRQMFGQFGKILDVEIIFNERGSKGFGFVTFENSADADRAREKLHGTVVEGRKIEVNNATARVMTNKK
UCCUUACCUGACCCCCUACGAGUUUACAGGUCUGUGGCAAUACUCUUAACCAUAAGAAUUGAAAUGGUGAAGAAACAAGUAUACACUAGAGGCUCUUAAAAGUAUUGAAA: 0.383
AUGUUUGUGCUUUCUCUGGCCCGUGAACACCUCGGCGAUUCUGUUAGGGAUGGGAUGAGUGGGAGGAAGCCCUUUGAGAAGGGGGAGCCGGCCCUGUCAUGCGCAGGUUU: 0.351
UCACUCUUAUAGGCCUACAUGCAGAUGGGCUUGAAGAGAAUUGGCCUUUCAUUUUUCACGCUCGUAUUUCCCCACCUGUCCAAGGGUGCAGAUAGCAGGAUUGUGGGGUC: 1.37
UGGGGUCAGCUUUCACGGUCGCUUUUCCCUUCCUCACCACCCACCACAGCCCACCUUGCAUGCAUGGCCAGCCCCUCCACUCCAGCCUGAGCCAUGUGUGCCCCUGCGGG: 11.8
GAACAAACAACAACAAAAAAAGCCAAUGAAGCCAUGUGCUGUCCUUAGGCAGACGUACUUGUCUCCACUCCCCACUCCAUCUCAGCCCAACUCCAGACACCCUAGGGCUG: 0.708
UUUCUUGUCACAUGAUUUCUUUUCUUGAUGGAUGAAAAAUAUGAAAGGAAACUUUUAUAUCUGUUGCCUAGUUUUGUACAUGGAUCUCAUUUUACAAGAGAAUCUCUCUG: 0.292
CCUUAGUCUCCAAGGUCAUCACCCCACCCACUCCCAUCAGUGUGGGCCUUGCUGCCAUUCCAGUCACGCACUCCUUGUCCCUGUCUCGCAUGGAGAUCAAAGAAAUAGCA: 5.23
GAGGUCAACAGCAGAACAGAGGCAGGUCAGGGUUGUCCGCUCUGAUUAGCAGAACGACAGCCCCUUCCUCCUCCUCCCUCCUUCCCAUCCCUACUCAUUAGCUCCCUGCU: 0.406
CAUAUUAUUUACCCCACUGUAACAUCAUGUAAACUAAGUAUGUUUUUAAACAAUUUUUAAGACUUGUAAUUACCCUGAAAAUAAGGUUUAUAAUGCAAAGACCAGCUCCU: 0.277
AUAGCUAGGCUAAGUCAAGAUCAACAGUCCGGGGUUGGUGGUGUUGGAUGAAACAUUCAUUUUUACCUUGUGGAUGCUAGUGCUGUAGAGUUCACUGUUGUACACAGUCU: 0.317
AAGGCGGUUUGGCCAGGCUUACUGCAGGCAUCCGACUGUAGAGAUCGCCACAGUCUCUGGGGCUCCAGGGCUGCGCUGUAACUGAGCUUCAUCCAGAAUGAGCAAAACAC: 0.361
CAUCAGGCUGGGGGCUGUGCUAUGUGGGAUGGAUGUGUGAGGAACCCCGGUUCCACUUAACAACUAAAUACAACAUCUUUUGCACCCCUAGAAUGUCAUUUUGCCCUCAA: 0.525

Repeated from above (block 3):
STTRRYLFVENDS [R6Y]: 0.736
STTGRRLFVENDS [R4G]: 0.879
STTRRRLFWENDS [V9W]: 6.52
STTRRRLFVEGDS [N11G]: 5.85
STMRRRLFVENDS [T3M]: 3.5
STLRRRLFVENDS [T3L]: 3.89
STTRRRLFVENWS [D12W]: 4.84
STTRRRLFVETDS [N11T]: 5.82
STTRRRLTVENDS [F8T]: 0.307
PTTRRRLFVENDS [S1P]: 5.08
STTRRQLFVENDS [R6Q]: 5.67
STTIRRLFVENDS [R4I]: 2.18
SGTRRRLFVENDS [T2G]: 6.2
STTRRRSFVENDS [L7S]: 0.0832
SYTRRRLFVENDS [T2Y]: 5.24
